Measurements pooled from the literature.
Lines come from different studies, so protocols differ. Numbers after ± are the reported error.
rep main protease: Replicase polyprotein 1ab, main protease (rep, Severe acute respiratory syndrome coronavirus 2, UniProt P0DTD1)

Substance	target or system	test	test system	setting	how to read	quantity	value
PaFS D92A (Diaporthe amygdali)	CC(C)=CCC/C(C)=C/COP(=O)(O)OP(=O)(O)O	steady-state kinetics				Km	2.1 µM
Cc1ccccc1-c1cccc(CN2CCN(C3CCN(C(C)C)CC3)C(CCO)C2)c1 (centres unmarked)	Lassa mammarenavirus	viral replication	Huh-7	10 µM, 72 h		remaining activity	37%
N#CC(C#N)=NNc1cccc(Cl)c1	Escherichia coli	checkerboard	tetracycline-resistant (pBR322)	42 µM, added: tetracycline		tetracycline MIC	225 µM
COc1cc(C)c(-c2ccc(CN(C)C)cc2)cc1C	Lassa mammarenavirus	viral replication	Huh-7	10 µM, 72 h		remaining activity	35%
COc1ccc(Nc2nc(Nc3ccc(OC)cc3OC)nc(N3CCOCC3)n2)c(OC)c1	SARS-CoV-2	cytopathic effect	USA_WA1/2020	retest 8-point		efficacy	89.9%
FSNSGSDVLYQPPQT	human CD4 T cells	AIM	peptide			responding donors	8%
Cc1ccccc1OC1CCN(C(=O)C2CC(=O)N(C(C)(C)C)C2)CC1 (centres unmarked)	Lassa mammarenavirus	viral replication	Huh-7	10 µM, 72 h		remaining activity	39%
Aprotinin	rep main protease	enzyme activity, Gaussia luciferase reporter	SARS-CoV-2	20 µM		inhibition	2.55%
NC(=O)CCNC(=O)c1ccccc1S	HIV-1	viral replication	human PBMC, group O BCF02, CCR5-tropic clinical isolate			EC50	10.7 ± 2.38 µM
CNC(=O)[C@@H](NC(=O)[C@H](CC(C)C)[C@H](O)C(=O)NO)C(C)(C)C	human fibrinogen	SDS-PAGE	Daboia russelii	concentration not given, unit not given, added: PB venom	relative to: untreated fibrinogen	remaining fibrinogen Bβ chain	0.841
CCCCN(C)CCCNC(=O)c1ccc2nc(N3CCCCC3)sc2c1	SARS-CoV-2	cytopathic effect	USA_WA1/2020	retest, 8-point, duplicates		maximum response	6.99%
Cc1cn([C@H]2C[C@H](N=[N+]=[N-])[C@@H](CO)O2)c(=O)[nH]c1=O	HIV-1	viral replication	human monocytes/macrophages, subtype B ADA, CCR5-tropic			EC50	0.002 µM
Cc1cc(/C=C/C#N)cc(C)c1Nc1nc(Nc2ccc3cc(C#N)ccc3c2)ncc1N	HIV-1	viral replication, single-round infection	RT mutant K101E/M184V			EC50	< 0.005 µM
O=C(C1CC(=O)N(C2CC2)C1)N1CCC2(CC1)Cc1cccc(c1)Oc1cccc(c1)CCNC2=O (centres unmarked)	Lassa mammarenavirus	viral replication	Huh-7	10 µM, 72 h		remaining activity	49%
Cc1cc(/C=C/C#N)cc(C)c1Nc1ccnc(Nc2ccc(C#N)cc2)n1	HIV-1	viral replication, single-round infection	RT mutant K101P/V179I			EC50	0.0935 ± 0.0121 µM
p2o (Trametes ochracea, UniProt Q7ZA32)	CN(C)c1ccc2nc3ccc(N(C)C)c([N+](=O)[O-])c3[s+]c2c1	steady-state kinetics		pH 6.5, 22 °C, apparent		Km	120 µM
c1ccc(Oc2cccc(CN3CCC4(CCNCC4)C3)c2)cc1	Lassa mammarenavirus	viral replication	Huh-7	10 µM, 72 h		remaining activity	46%
QPYRVVVL		AIM	peptide, CD8+ T cells from PBMC, human donors	HLA-B*08:01 restricted, unit not given	relative to: positive over tested donors	frequency of responding donors	60
CCc1c(C(=O)C(N)=O)c2c(OCC(=O)O)cccc2n1Cc1ccccc1	C2C12			10 µM, added: MP venom	relative to: venom alone	viability difference	31.6%
Cc1cc(/C=C/C#N)cc(C)c1-n1cnc2cnc(Nc3ccc(/C=C/C#N)cc3)nc21	HIV-1	viral replication, single-round infection	RT mutant V106A/L234I			EC50	0.0366 ± 0.0024 µM
O=C(NCc1ccccc1Cl)C1CCCN(Cc2cccc(-c3ccc(F)cc3F)c2)C1 (centres unmarked)	SARS-CoV-2	cytopathic effect	USA_WA1/2020	round 1, 5-point		efficacy	52.1%
COP(=O)(OC)OC=C(Cl)Cl	rat CYP1A	ethoxyresorufin O-deethylation	liver microsomes	concentration not given		Vmax	0.24 ± 0.06 nmol/min/mg protein

Substance	target or system	test	test system	setting	how to read	quantity	value
tricresyl phosphate	Voltage-gated inwardly rectifying potassium channel KCNH2 (KCNH2, Homo sapiens, UniProt Q12809)	thallium influx, inhibitor, primary qHTS	hERG-transduced cells	two runs		IC50	14 ± 9 µM
FolB (Mycobacterium tuberculosis, UniProt P9WNC5)	Nc1nc2c(c(=O)[nH]1)N=C([C@H](O)[C@H](O)CO)CN2	steady-state kinetics		pH 7, 25 °C		Km	0.165 µM
DASGKPVPY		AIM	peptide, CD8+ T cells from PBMC, human donors		relative to: positive over tested donors	frequency of responding donors	33%
Cc1ccc(Nc2ccnc(N3CCC(C(=O)NCCCc4ccccc4)CC3)n2)cc1	SARS-CoV-2	cytopathic effect	USA_WA1/2020	retest, 8-point, duplicates		maximum response	59.3%
Nc1ncnc2c([C@@H]3N[C@H](CO)[C@@H](O)[C@H]3O)c[nH]c12	Zaire ebolavirus	viral replication, inhibitor	human Macrophage	0.8 µM		inhibition	1.8%
COc1ccc(Nc2cc(C(=O)NCCCN3CCN(c4ccccc4F)CC3)c3ccccc3n2)c(OC)c1	SARS-CoV-2	cytopathic effect, cell-based CPE	USA_WA1/2020	round 2, 5-point dilution		AC50	5.62 µM
cysH (Mycobacterium tuberculosis, UniProt P9WIK3)	Nc1ncnc2c1ncn2[C@@H]1O[C@H](COP(=O)(O)OS(=O)(=O)O)[C@@H](O)[C@H]1O	steady-state kinetics		pH 7.5		kcat/Km	5500 ± 33.3 M⁻¹ s⁻¹
CSc1ccc2c(c1)C(N1CCN(C)CC1)Cc1ccccc1S2 (centres unmarked)	HeLa	Ebola VLP entry				IC50	8.63 µM
YLTFYLTNDVSFLAH	human CD4 T cells	AIM	peptide			responding donors	17%
Cn1cc(CN2CCCC(COc3ccccc3C(=O)N3CCCCC3)C2)c2ccccc21 (centres unmarked)	SARS-CoV-2	cytopathic effect, cell-based CPE	USA_WA1/2020	round 1, 5-point dilution		AC50	12.6 µM
LPFFSNVTWFHAIHV	human CD4 T cells	AIM	peptide			responding donors	9%
Cn1c(Cn2ccc(C(F)(F)F)c(Oc3cc(Cl)cc(C#N)c3)c2=O)n[nH]c1=O	HIV-1	viral replication, single-round infection	RT mutant V106A/F227L			EC50	> 0.1 µM
Teneligliptin hydrobromide	rep main protease	enzyme activity, Gaussia luciferase reporter	SARS-CoV-2	20 µM		inhibition	2.11%
LPYAK		DSC	peptide, 6/4 SOPC/cholesterol bilayers	5 mol%, pH 7.40, SOPC chain melting transition		transition enthalpy	0.3 kcal/mol
BKRF4 fragment (Epstein-Barr virus)	H2A/H2B dimer (Homo sapiens)	ITC		25 °C, NaCl 0.5 M		Kd	1.1 µM
YREAACCHLAKALND	human CD4 T cells	AIM	peptide			responding donors	8%
Cc1cc(/C=C/C#N)cc(C)c1-n1cnc2cnc(Nc3ccc4cc(C#N)ccc4c3)nc21	HIV-1	viral replication, single-round infection	RT mutant V106A			EC50	0.0151 ± 0.001 µM
CCOCCC(=O)N1CC(=O)N[C@@H](CC(C)C)c2nc(cs2)C(=O)N[C@@H](Cc2ccccc2)c2nc(C)nn2CC(=O)N[C@@H](C(C)C)C1	Lassa mammarenavirus	viral replication	Huh-7	10 µM, 72 h		remaining activity	105%
CN1CCCC2(C1)CN(Cc1cccnc1)c1ccc(C(=O)NCC3CCCCC3)cc12 (centres unmarked)	SARS-CoV-2	cytopathic effect	USA_WA1/2020	round 2, 5-point		efficacy	89%
FPQSAPHGV		AIM	peptide, CD8+ T cells from PBMC, human donors		relative to: positive over tested donors	frequency of responding donors	100%
COc1ccc(-c2nc(CN3CCC(C(=O)NCCCN4CCN(c5ccccc5F)CC4)CC3)c(C)o2)cc1OC	SARS-CoV-2	cytopathic effect, cell-based CPE	USA_WA1/2020	round 2, 5-point dilution		AC50	8.91 µM
FIASFRLFARTRSMW	human CD4 T cells	AIM	peptide			responding donors	8%

Some of these lines once more:
Substance	target or system	test	test system	setting	how to read	quantity	value
COc1ccc(-c2nc(CN3CCC(C(=O)NCCCN4CCN(c5ccccc5F)CC4)CC3)c(C)o2)cc1OC	SARS-CoV-2	cytopathic effect, cell-based CPE	USA_WA1/2020	round 2, 5-point dilution		AC50	8.91 µM
FolB (Mycobacterium tuberculosis, UniProt P9WNC5)	Nc1nc2c(c(=O)[nH]1)N=C([C@H](O)[C@H](O)CO)CN2	steady-state kinetics		pH 7, 25 °C		Km	0.165 µM
CCc1c(C(=O)C(N)=O)c2c(OCC(=O)O)cccc2n1Cc1ccccc1	C2C12			10 µM, added: MP venom	relative to: venom alone	viability difference	31.6%
FIASFRLFARTRSMW	human CD4 T cells	AIM	peptide			responding donors	8%
QPYRVVVL		AIM	peptide, CD8+ T cells from PBMC, human donors	HLA-B*08:01 restricted, unit not given	relative to: positive over tested donors	frequency of responding donors	60
CCCCN(C)CCCNC(=O)c1ccc2nc(N3CCCCC3)sc2c1	SARS-CoV-2	cytopathic effect	USA_WA1/2020	retest, 8-point, duplicates		maximum response	6.99%
